Experimental data from different studies.
Lines come from different studies, so protocols differ. Numbers after ± are the reported error.
Cell line: Caco-2 monolayers

SMILES	test	setting	scale	quantity	result
CC(=O)N[C@H]1[C@H]([C@H](O)[C@H](O)CO)OC(C(=O)O)=C[C@@H]1N=C(N)N		concentration not given, 180 min, apical to basolateral, added: calcium-free HBSS	baseline: HBSS with calcium	Papp fold increase	56.2 fold
N[C@@H](Cc1ccc(O)c(O)c1)C(=O)O	bidirectional transport, HPLC-UV	100 µg/mL, 2 h	baseline: BL→AP over AP→BL	efflux ratio	> 2
O=C(CCc1ccc(O)cc1)c1c(O)cc(O)cc1O[C@@H]1O[C@H](CO)[C@@H](O)[C@H](O)[C@H]1O		100 µg/mL, 2 h	baseline: Papp(BL-AP) over Papp(AP-BL)	efflux ratio	1.93 ± 1.2
O=C(O)C=Cc1ccc(O)cc1		1 mM, pH 7.4, apical pH effect		Papp	inhibited
COc1ccc(CCC(=O)c2c(O)cc(O[C@@H]3O[C@H](CO)[C@@H](O)[C@H](O)[C@H]3O[C@@H]3O[C@@H](C)[C@H](O)[C@@H](O)[C@H]3O)cc2O)cc1O	apical to basolateral transport	100 µg/mL, 2 h		amount transported	13.8 ± 0.7%
COc1ccc2c(c1OC)C(=O)O[C@@H]2[C@H]1c2c(cc3c(c2OC)OCO3)CCN1C	bidirectional transport, HPLC-UV	100 µg/mL, 2 h	baseline: BL→AP over AP→BL	efflux ratio	> 2
COc1ccc([C@@H]2CC(=O)c3c(O)cc(O)cc3O2)cc1O	basolateral to apical transport	100 µg/mL, 2 h		amount transported	17.4 ± 0.7%
C[C@H]1O[C@@H](O[C@H]2[C@@H](O)C[C@H](O[C@H]3[C@@H](O)C[C@H](O[C@H]4CC[C@@]5(C)[C@H](CC[C@@H]6[C@@H]5C[C@@H](O)[C@]5(C)[C@@H](C7=CC(=O)OC7)CC[C@]65O)C4)O[C@@H]3C)O[C@@H]2C)C[C@H](O)[C@@H]1O		5 µM, 2 h, pH apical 6.5, basolateral 7.4		Papp (A to B)	0.68 ×10⁻⁶ cm/s
O=C(CS)NCCCCCC(=O)Nc1cccc2cccnc12		added: verapamil 100 µM	baseline: B-A over A-B	efflux ratio	0.73
COc1ccc([C@@H]2CC(=O)c3c(O)cc(O)cc3O2)cc1O	bidirectional transport, HPLC-UV	100 µg/mL, 2 h	baseline: BL→AP over AP→BL	efflux ratio	> 2

Some of these lines once more:
SMILES	test	setting	scale	quantity	result
O=C(CCc1ccc(O)cc1)c1c(O)cc(O)cc1O[C@@H]1O[C@H](CO)[C@@H](O)[C@H](O)[C@H]1O		100 µg/mL, 2 h	baseline: Papp(BL-AP) over Papp(AP-BL)	efflux ratio	1.93 ± 1.2
